Measurements of several laboratories.
In brackets after ≈: the same amount, converted by molar mass. Bridge positions count the residues as written; N and C are the ends. Ends that are not written are not given here. * marks the point of attachment.
Organism: Staphylococcus aureus

For `CCCCCCCOc1c(OC)cc(NC(C)CCCNC(=O)C(N)Cc2cc3ccccc3[nH]2)c2nc(C(C)(C)C)ccc12` (stereo not drawn), the IC50 was 2.68 µg/mL (microbial growth; ATCC33591 MRSA; drug-resistant strain).
For `Myristoyl-ACPIFTKIQGTYRGKAKCK (disulfide 2-18 (inferred)) (N-myristoyl, disulfide; Myristoyl = CCCCCCCCCCCCCC(=O)*)`, antibacterial activity read “inhibited” (ATCC 8530; MBC, 2 h, pH 7.4, 37 °C, together with: E. coli K-235 LPS at peptide:LPS 1:10 w/w).
`CCCCCOc1c(OC)cc(NC(C)CCCNC(=O)C(N)CC(C)C)c2nc(C(C)(C)C)ccc12` (stereo not drawn) gave an MBC of 20 µg/mL (microbial killing; ATCC33591 MRSA; drug-resistant strain).
`CC[C@H](C)[C@H](NC(=O)[C@H](CCCCN)NC(=O)[C@H](CCC(=O)O)NC(=O)[C@H](CCCCN)NC(=O)[C@H](CO)NC(=O)[C@H](CCCCN)NC(=O)[C@H](CCCNC(=N)N)NC(=O)[C@H](Cc1ccccc1)NC(=O)[C@H](Cc1ccccc1)NC(=O)[C@H](CC(=O)O)NC(=O)CNC(=O)[C@H](CC(C)C)NC(=O)[C@@H](N)CC(C)C)C(=O)NCC(=O)N[C@@H](CCCCN)C(=O)N[C@@H](CCC(=O)O)C(=O)N[C@@H](Cc1ccccc1)C(=O)N[C@@H](CCCCN)C(=O)N[C@@H](CCCNC(=N)N)C(=O)N[C@H](C(=O)N[C@H](C(=O)N[C@@H](CCC(N)=O)C(=O)N[C@@H](CCCNC(=N)N)C(=O)N[C@H](C(=O)N[C@@H](CCCCN)C(=O)N[C@@H](CC(=O)O)C(=O)N[C@@H](Cc1ccccc1)C(=O)N[C@@H](CC(C)C)C(=O)N[C@@H](CCCNC(=N)N)C(=O)N[C@@H](CC(N)=O)C(=O)N[C@@H](CC(C)C)C(=O)N[C@H](C(=O)N1CCC[C@H]1C(=O)N[C@@H](CCCNC(=N)N)C(=O)N[C@H](C(=O)N[C@@H](CCC(=O)O)C(=O)N[C@@H](CO)C(=O)O)[C@@H](C)O)C(C)C)[C@@H](C)CC)C(C)C)[C@@H](C)CC` gave an MIC ratio of 2 fold (JE2 SAUSA300_1089 lspA transposon mutant; 12.5% TSB; baseline: wild type over mutant).
With `CCCCCCOc1c(OC)cc(NC(C)CCCNC(=O)C(C)N)c2nc(C(C)(C)C)ccc12` (stereo not drawn) the IC50 was greater than 20 µg/mL (bacterial growth; MRSA ATCC 33591).
The FIC index of `C[C@@H](O)[C@H]1C(=O)N2C(C(=O)O)=C(S[C@@H]3CN[C@H](C(=O)N(C)C)C3)[C@H](C)[C@H]12` is reported as 1.5 (checkerboard titration; ATCC 38591 oxacillin-resistant; together with: ranalexin).
With `COc1ccc(C2CC(c3ccccc3)=NN2c2ccc(S(N)(=O)=O)cc2)cc1` (stereo not drawn) the IC50 was 5.4 µM (bacterial invasion of cells, flow cytometry; HUVEC, MSSA ATCC 29213).
For `CC[C@H](C)[C@H](N)C(=O)N[C@@H](CC(C)C)C(=O)N1CCC[C@H]1C(=O)N[C@@H](Cc1c[nH]c2ccccc12)C(=O)N[C@@H](CCCCN)C(=O)N[C@@H](Cc1c[nH]c2ccccc12)C(=O)N1CCC[C@H]1C(=O)N[C@@H](Cc1c[nH]c2ccccc12)C(=O)N[C@@H](Cc1c[nH]c2ccccc12)C(=O)N1CCC[C@H]1C(=O)N[C@@H](Cc1c[nH]c2ccccc12)C(=O)N[C@@H](CCCNC(=N)N)C(=O)N[C@@H](CCCNC(=N)N)C(N)=O`, the MIC range was 2 to 16 µg/mL (≈ 1.05 to 8.39 µM) (broth microdilution; methicillin-resistant clinical isolates, Mueller-Hinton broth; 18 h, 35 °C).
For `CC[C@H](C)[C@H](NC(=O)[C@H](C)NC(=O)[C@@H](NC(=O)[C@H](C)NC(=O)CNC(C)=O)[C@@H](C)O)C(=O)N[C@@H](CCCCN)C(=O)N[C@@H](CCC(N)=O)C(=O)N[C@H](C(=O)N[C@@H](CCCCN)C(=O)N[C@@H](CCCCN)C(=O)N[C@@H](CC(C)C)C(=O)N[C@@H](Cc1ccccc1)C(=O)N[C@@H](CCCCN)C(=O)N[C@@H](CCCCN)C(=O)N[C@@H](CCCCN)C(=O)NCC(=O)NCC(N)=O)C(C)C`, the MBC was greater than 620 µM (ATCC 25923; 24 h, 37 °C).
